Assay results collected from several papers.
Numbered parts are unrelated; each lists some results of a single study. Several values in a cell are separate wells, animals, samples, runs or records.
Chain of UniProt P15056 (whole entry, unmodified, looked up): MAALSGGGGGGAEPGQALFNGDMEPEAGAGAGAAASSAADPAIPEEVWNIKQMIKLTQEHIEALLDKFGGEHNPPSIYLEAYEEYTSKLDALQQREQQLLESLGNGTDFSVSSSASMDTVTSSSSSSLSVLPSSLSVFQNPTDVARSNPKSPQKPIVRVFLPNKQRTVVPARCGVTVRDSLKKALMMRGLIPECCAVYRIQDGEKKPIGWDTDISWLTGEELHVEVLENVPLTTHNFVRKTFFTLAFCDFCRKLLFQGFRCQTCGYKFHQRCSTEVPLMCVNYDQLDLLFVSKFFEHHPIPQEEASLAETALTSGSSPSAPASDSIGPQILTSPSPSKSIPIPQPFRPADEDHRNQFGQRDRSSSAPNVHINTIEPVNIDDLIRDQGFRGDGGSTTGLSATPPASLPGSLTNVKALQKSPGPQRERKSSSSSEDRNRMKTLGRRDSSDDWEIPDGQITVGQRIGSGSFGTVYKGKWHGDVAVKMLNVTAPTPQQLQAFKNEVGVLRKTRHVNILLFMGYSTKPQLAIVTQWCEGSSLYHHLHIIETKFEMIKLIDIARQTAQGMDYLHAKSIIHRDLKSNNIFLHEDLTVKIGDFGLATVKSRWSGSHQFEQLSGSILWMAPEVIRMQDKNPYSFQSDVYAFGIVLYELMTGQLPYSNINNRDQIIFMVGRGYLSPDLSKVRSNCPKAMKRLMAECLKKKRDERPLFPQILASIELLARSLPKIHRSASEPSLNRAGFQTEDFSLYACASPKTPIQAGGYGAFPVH
Chain of UniProt P11802 (whole entry, looked up): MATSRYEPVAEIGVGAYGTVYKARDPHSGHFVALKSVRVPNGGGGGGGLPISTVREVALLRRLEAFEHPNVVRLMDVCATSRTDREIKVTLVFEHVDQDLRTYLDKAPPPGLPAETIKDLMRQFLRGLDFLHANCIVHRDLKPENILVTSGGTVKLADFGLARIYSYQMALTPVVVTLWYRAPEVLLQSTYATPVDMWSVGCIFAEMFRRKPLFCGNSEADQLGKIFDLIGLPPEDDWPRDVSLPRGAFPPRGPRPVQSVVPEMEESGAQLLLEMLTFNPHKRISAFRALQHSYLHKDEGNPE
Chain of UniProt O94768 (whole entry, looked up): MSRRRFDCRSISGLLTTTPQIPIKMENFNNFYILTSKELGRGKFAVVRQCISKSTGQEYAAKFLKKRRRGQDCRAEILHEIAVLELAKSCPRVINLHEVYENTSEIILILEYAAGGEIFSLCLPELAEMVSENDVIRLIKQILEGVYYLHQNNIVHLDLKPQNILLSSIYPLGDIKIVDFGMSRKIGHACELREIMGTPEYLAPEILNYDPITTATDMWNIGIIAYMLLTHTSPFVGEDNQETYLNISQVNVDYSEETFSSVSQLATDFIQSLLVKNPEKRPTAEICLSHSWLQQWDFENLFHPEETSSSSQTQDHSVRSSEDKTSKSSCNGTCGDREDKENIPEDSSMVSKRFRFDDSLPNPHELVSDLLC
Chain of UniProt P68400 (whole entry, looked up): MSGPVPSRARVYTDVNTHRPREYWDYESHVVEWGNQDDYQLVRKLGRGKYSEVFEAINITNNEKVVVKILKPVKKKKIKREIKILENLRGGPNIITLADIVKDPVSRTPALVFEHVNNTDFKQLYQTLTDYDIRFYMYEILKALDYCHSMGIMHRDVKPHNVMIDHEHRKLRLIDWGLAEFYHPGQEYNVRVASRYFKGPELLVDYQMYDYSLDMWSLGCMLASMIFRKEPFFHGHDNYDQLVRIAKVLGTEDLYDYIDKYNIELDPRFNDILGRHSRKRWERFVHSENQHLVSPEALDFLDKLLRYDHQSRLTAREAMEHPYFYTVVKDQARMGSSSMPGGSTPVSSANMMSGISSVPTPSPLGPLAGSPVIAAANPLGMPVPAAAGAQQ
Chain of UniProt O15264 (whole entry, looked up): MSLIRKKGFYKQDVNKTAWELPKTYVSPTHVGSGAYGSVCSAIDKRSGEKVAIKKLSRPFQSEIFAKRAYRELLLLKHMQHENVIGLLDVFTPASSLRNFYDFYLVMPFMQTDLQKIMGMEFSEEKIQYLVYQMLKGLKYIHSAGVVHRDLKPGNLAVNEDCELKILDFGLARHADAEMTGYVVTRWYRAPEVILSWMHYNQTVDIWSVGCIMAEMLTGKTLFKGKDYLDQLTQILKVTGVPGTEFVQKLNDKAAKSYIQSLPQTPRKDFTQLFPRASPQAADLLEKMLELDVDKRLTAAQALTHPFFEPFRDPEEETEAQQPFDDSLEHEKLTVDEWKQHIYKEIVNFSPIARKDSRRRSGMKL
Chain of UniProt P25098 (whole entry, looked up): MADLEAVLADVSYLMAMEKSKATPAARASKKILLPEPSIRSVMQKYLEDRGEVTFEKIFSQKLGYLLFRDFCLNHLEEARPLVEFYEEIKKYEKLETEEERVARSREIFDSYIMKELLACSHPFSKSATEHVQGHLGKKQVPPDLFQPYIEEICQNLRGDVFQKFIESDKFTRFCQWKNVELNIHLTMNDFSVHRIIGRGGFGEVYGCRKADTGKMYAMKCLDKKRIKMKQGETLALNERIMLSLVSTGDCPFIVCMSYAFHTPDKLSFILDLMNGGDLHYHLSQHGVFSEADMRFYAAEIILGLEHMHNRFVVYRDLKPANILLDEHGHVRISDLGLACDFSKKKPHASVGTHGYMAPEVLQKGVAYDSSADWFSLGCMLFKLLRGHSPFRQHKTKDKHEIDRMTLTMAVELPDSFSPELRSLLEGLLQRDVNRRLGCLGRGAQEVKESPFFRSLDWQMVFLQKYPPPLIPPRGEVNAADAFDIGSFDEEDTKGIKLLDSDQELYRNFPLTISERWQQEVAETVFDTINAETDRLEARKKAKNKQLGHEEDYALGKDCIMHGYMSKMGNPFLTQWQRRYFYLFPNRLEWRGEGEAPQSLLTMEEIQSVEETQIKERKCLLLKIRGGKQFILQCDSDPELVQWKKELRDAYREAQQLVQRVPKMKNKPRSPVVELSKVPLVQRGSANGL
Chain of UniProt P07948 (whole entry, looked up): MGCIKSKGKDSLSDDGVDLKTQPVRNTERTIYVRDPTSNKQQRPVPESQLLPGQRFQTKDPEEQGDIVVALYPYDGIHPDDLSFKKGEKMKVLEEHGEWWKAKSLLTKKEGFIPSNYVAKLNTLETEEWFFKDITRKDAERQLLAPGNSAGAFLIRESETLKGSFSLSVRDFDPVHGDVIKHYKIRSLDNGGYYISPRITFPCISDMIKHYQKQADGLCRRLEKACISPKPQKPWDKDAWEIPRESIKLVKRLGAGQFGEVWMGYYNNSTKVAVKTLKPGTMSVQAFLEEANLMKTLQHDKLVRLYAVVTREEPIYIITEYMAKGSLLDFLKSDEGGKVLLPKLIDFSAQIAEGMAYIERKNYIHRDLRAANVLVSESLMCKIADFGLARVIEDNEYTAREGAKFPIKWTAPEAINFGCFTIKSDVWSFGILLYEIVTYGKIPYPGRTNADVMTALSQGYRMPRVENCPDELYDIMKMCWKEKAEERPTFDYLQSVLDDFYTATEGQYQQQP
Chain of UniProt Q06187 (whole entry, looked up): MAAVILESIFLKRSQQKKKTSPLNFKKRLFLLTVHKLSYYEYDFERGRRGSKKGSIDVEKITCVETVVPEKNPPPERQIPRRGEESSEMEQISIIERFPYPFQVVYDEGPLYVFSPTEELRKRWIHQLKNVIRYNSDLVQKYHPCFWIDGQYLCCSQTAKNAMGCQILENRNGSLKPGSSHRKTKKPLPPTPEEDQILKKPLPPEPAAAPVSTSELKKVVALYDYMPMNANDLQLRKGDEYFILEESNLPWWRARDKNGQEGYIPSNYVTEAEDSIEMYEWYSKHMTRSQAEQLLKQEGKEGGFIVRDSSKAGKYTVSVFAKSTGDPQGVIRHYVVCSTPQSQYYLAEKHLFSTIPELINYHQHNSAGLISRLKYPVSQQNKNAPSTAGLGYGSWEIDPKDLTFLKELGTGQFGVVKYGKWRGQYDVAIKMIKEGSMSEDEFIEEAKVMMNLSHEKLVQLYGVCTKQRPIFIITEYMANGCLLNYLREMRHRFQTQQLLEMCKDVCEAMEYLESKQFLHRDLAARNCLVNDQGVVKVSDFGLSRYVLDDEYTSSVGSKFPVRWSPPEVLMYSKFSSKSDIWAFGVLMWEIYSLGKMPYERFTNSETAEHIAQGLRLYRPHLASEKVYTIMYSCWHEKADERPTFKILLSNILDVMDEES
Chain of UniProt Q8NFD2 (whole entry, looked up): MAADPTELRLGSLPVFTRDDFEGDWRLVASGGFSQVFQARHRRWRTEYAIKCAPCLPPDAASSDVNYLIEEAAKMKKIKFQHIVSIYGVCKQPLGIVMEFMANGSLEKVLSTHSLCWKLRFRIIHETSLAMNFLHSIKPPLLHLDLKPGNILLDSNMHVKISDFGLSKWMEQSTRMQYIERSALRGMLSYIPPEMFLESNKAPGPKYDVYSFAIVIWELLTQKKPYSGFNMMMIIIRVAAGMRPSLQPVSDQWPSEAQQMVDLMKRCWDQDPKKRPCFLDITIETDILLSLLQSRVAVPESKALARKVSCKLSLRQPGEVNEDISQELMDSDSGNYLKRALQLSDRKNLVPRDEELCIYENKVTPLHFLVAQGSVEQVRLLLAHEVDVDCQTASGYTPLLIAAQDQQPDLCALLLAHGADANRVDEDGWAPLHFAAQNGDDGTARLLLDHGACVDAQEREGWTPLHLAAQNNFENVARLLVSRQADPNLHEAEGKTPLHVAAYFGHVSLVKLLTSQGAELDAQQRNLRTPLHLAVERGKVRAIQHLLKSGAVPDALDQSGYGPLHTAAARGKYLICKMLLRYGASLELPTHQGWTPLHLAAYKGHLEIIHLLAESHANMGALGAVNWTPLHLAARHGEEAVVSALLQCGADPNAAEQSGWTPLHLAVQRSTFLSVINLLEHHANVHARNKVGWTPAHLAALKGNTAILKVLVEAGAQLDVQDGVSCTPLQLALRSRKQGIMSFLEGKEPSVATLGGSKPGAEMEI

Series 1
Compound: COc1cc(-c2cn(C3CCc4c(F)cccc4N(CC(F)(F)F)C3=O)nn2)ccc1-n1cnc(C)c1 (stereo not drawn)
Tested at: 1 µM
| target | effect on | technique | remaining binding |
| --- | --- | --- | --- |
| BRAF (Homo sapiens, UniProt P15056) | cell-free assay | competition with immobilised ligand | 100% |
| PIM1 (Homo sapiens, UniProt P11309) | cell-free assay | competition with immobilised ligand | 96% |
| CSNK1G2 (Homo sapiens, UniProt P78368) | cell-free assay | competition with immobilised ligand | 100% |
| BRAF (Homo sapiens, UniProt P15056, V600E) | cell-free assay | competition with immobilised ligand | 100% |
| GRK2 (Homo sapiens, UniProt P25098) | cell-free assay | competition with immobilised ligand | 100% |
| PI4KB (Homo sapiens, UniProt Q9UBF8) | cell-free assay | competition with immobilised ligand | 79% |
| STK17B (Homo sapiens, UniProt O94768) | cell-free assay | competition with immobilised ligand | 99% |
| PIK3CA (Homo sapiens, UniProt P42336, E545A) | cell-free assay | competition with immobilised ligand | 100% |
| CDK4 (Homo sapiens, UniProt P11802) | cell-free assay | competition with immobilised ligand | 88% |
| ANKK1 (Homo sapiens, UniProt Q8NFD2) | cell-free assay | competition with immobilised ligand | 100% |
| CSNK1G1 (Homo sapiens, UniProt Q9HCP0) | cell-free assay | competition with immobilised ligand | 86% |
| CDK5 (Homo sapiens, UniProt Q00535) | cell-free assay | competition with immobilised ligand | 100% |
| PNCK (Homo sapiens, UniProt Q6P2M8) | cell-free assay | competition with immobilised ligand | 100% |
| PAK5 (Homo sapiens, UniProt Q9P286) | cell-free assay | competition with immobilised ligand | 93% |
| MAPK6 (Homo sapiens, UniProt Q16659) | cell-free assay | competition with immobilised ligand | 100% |
| CHEK1 (Homo sapiens, UniProt O14757) | cell-free assay | competition with immobilised ligand | 100% |
| BMPR1A (Homo sapiens, UniProt P36894) | binding | competition with immobilised ligand | 100% |
| Tyrosine-protein kinase ABL1, phosphorylated (ABL1, Homo sapiens, UniProt P00519, F317I) | binding |  | 100% |

Series 2
Cell line: A-375
Tested at: 100 µM
Time: 18 h
| SMILES | viability |
| --- | --- |
| O=C(COc1ccc(Cl)cc1)N1CCN(Cc2ccc3c(c2)OCO3)CC1 | 78.4% |
| CC1=C(/C=C/C(C)=C/C=C/C(C)=C/C(=O)O)C(C)(C)CCC1 | 62.1% |
| Nc1cc(N2CCCCC2)nc(N)[n+]1[O-] | 97.8% |
| C[C@@H](NCCCc1cccc(C(F)(F)F)c1)c1cccc2ccccc12 | 8.28% |
| O=C(CO)[C@@H](O)[C@H](O)[C@H](O)CO | 85.4% |
| O=C(O)C1=C(CSc2nnnn2CS(=O)(=O)O)CS[C@@H]2[C@H](NC(=O)[C@H](O)c3ccccc3)C(=O)N12 | 94.6% |
| Clc1ccc(C(Cn2ccnc2)OCc2c(Cl)cccc2Cl)c(Cl)c1 (stereo not drawn) | 91.5% |
| CCOc1ccc2ccccc2c1C(=O)N[C@@H]1C(=O)N2[C@@H]1SC(C)(C)[C@@H]2C(=O)O | 89% |
| O=C1O[C@H](CO)[C@@H](O)[C@H](O)[C@H]1O | 75.2% |
| COc1ccc2[nH]c([S+]([O-])Cc3ncc(C)c(OC)c3C)nc2c1 (stereo not drawn) | 84.6% |
| CNC(=O)c1cc(Oc2ccc(NC(=O)Nc3ccc(Cl)c(C(F)(F)F)c3)cc2)ccn1 | 31.5% and 30.9% |
| C#C[C@]1(O)CC[C@H]2[C@@H]3CCC4=CC(=O)CC[C@@H]4[C@H]3C(=C)C[C@@]21CC | 60.3% |
| CC1(C)O[C@@H]2[C@@H](CO[C@@]3(COS(N)(=O)=O)OC(C)(C)O[C@@H]23)O1 | 95.6% |

Series 3
Compound: O=C1NC(=O)/C(=C/c2ccc3nccnc3c2)S1
Effect on: enzyme activity
Mode: inhibitor
Tested at: 0.5 µM
Baseline: control
| target | remaining activity [%] |
| --- | --- |
| CSNK1A1 (Homo sapiens, UniProt P48729) | 89.2 |
| STK38 (Homo sapiens, UniProt Q15208) | 99.6 |
| MKNK2 (Homo sapiens, UniProt Q9HBH9) | 98.2 |
| BTK (Homo sapiens, UniProt Q06187) | 104 |
| PRKG1 (Homo sapiens, UniProt Q13976) | 98.3 |
| MAPK13 (Homo sapiens, UniProt O15264) | 99.1 |
| PRKCI (Homo sapiens, UniProt P41743) | 98.6 |
| LYN (Homo sapiens, UniProt P07948) | 99.6 |
| CSNK2A1 (Homo sapiens, UniProt P68400) | 3.08 |
| MAP2K6 (Homo sapiens, UniProt P52564) | 91.2 |

Mixed results
| Compound | species | dose | setting | measurement | result |
| --- | --- | --- | --- | --- | --- |
| CC(C)n1cnc(-c2ccc(F)cc2)c1-c1ncc(C(=O)Nc2ccc(N3CCN(C)CC3)cc2)[nH]1 | IPF patients | 30 mg once daily | adverse event incidence | blood bilirubin increased | 0% |

A few entries again (series 2):
| SMILES | viability |
| --- | --- |
| CNC(=O)c1cc(Oc2ccc(NC(=O)Nc3ccc(Cl)c(C(F)(F)F)c3)cc2)ccn1 | 31.5% and 30.9% |
| C#C[C@]1(O)CC[C@H]2[C@@H]3CCC4=CC(=O)CC[C@@H]4[C@H]3C(=C)C[C@@]21CC | 60.3% |
| CC1(C)O[C@@H]2[C@@H](CO[C@@]3(COS(N)(=O)=O)OC(C)(C)O[C@@H]23)O1 | 95.6% |
